Assay results collected from several papers.
Lines come from different studies, so protocols differ. ± gives the spread as reported.
Target: Tyrosine-protein phosphatase non-receptor type 1 (PTPN1, Homo sapiens, UniProt P18031)
Effect on: enzyme activity
Mode: inhibitor
Residues used in one study (P18031 1-435): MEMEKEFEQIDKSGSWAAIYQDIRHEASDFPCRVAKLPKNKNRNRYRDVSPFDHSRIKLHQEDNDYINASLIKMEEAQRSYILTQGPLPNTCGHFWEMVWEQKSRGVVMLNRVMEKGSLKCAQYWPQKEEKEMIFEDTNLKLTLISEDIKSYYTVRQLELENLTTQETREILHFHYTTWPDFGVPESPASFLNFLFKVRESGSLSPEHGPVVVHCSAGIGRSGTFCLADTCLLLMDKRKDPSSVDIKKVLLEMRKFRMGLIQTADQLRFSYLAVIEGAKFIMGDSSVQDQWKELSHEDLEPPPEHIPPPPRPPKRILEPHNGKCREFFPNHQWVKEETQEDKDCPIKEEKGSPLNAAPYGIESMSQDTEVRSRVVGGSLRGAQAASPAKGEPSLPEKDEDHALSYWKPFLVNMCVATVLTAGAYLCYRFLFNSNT

SMILES = CC(C)=CCCC1(C)C=Cc2c(O)cc(-c3cc4ccc(O)cc4o3)cc2O1 (stereo not drawn); test = absorbance; IC50 = > 100 µM
SMILES = CC(/C=C/C(=O)NO)=C\[C@@H](C)C(=O)c1ccc(N(C)C)cc1; test = fluorescence; IC50 = > 100 µM
SMILES = CC(C)=CCC[C@](C)(O[C@@H]1O[C@H](CO[C@@H]2OC[C@@H](O)[C@H](O)[C@H]2O)[C@@H](O)[C@H](O)[C@H]1O)C1CC[C@]2(C)C1[C@H](O)CC1[C@@]3(C)CC[C@H](O[C@@H]4O[C@H](CO)[C@@H](O)[C@H](O)[C@H]4O)C(C)(C)C3CC[C@]12C (stereo partly drawn); test = absorbance; setting = pH 7.4; IC50 = > 100 µM
SMILES = CC(C)=CCCC1(C)Oc2ccc3cc(-c4cc(O)cc(O)c4CC=C(C)C)oc3c2CC1O (stereo not drawn); test = absorbance; IC50 = 11 µM
SMILES = CC(C)=CCC[C@](C)(O[C@@H]1O[C@H](CO)[C@@H](O)[C@H](O)[C@H]1O)C1CC[C@]2(C)C1[C@H](O)CC1[C@@]3(C)CC[C@H](O[C@@H]4O[C@H](CO)[C@@H](O)[C@H](O)[C@H]4O[C@@H]4O[C@H](CO)[C@@H](O)[C@H](O)[C@H]4O[C@@H]4OC[C@@H](O)[C@H](O)[C@H]4O)C(C)(C)C3CC[C@]12C (stereo partly drawn); test = absorbance; setting = pH 7.4; IC50 = > 100 µM
SMILES = COc1cc(O[C@@H]2O[C@H](CO)[C@@H](O)[C@H](O)[C@H]2O)c2c(O)c3c(=O)cc(C)oc3cc2c1; test = absorbance; IC50 = 87.4 µM
SMILES = CC(C)=CCCC(C)=CCc1c(O)ccc2cc(-c3cc(O)c4ccoc4c3)oc12; test = absorbance; IC50 = 18 µM
SMILES = CC(=O)OC1CCC2(C)C(CCC3(C)C2CCC2C(C4=CC(C=C(C)C)OC4=O)CCC23C)C1(C)C (stereo not drawn); test = absorbance; IC50 = 27.3 µM
SMILES = C=CC1C(OC2OC(CO)C(O)C(O)C2O)OC=C(C(=O)OC)C1CC1CC(=O)CC(CC(=O)CCc2ccc(O)cc2)O1 (stereo not drawn); test = absorbance; IC50 = > 100 µM
SMILES = C[C@@H]1O[C@@H](O[C@@H]2C(=O)c3c(O)cc(O)cc3O[C@@H]2c2ccc(O)cc2)[C@H](O)[C@H](O)[C@H]1O; test = absorbance; IC50 = 4.76 µM
SMILES = CC1(CN)CCN(c2cnc(Sc3cccc(Cl)c3Cl)c(N)n2)CC1; test = fluorescence; IC50 = > 100 µM
SMILES = O=c1ccc2cc(O[C@@H]3O[C@H](CO)[C@@H](O)[C@H](O)[C@H]3O)c(O[C@@H]3O[C@H](CO)[C@@H](O)[C@H](O)[C@H]3O)cc2o1; test = absorbance; IC50 = > 100 µM
SMILES = COc1cc(O)cc(-c2cc3ccc(OC)cc3o2)c1; test = absorbance; IC50 = > 100 µM
SMILES = O=C(O)c1ccc(O)cc1; test = absorbance; IC50 = > 100 µM
SMILES = CCCC1=C(CO)C(=O)CC(O)C1 (stereo not drawn); test = absorbance; IC50 = 12.1 µM
SMILES = O=C1OC(c2ccc(O)cc2)Cc2cccc(OC3OC(CO)C(O)C(O)C3O)c21 (stereo not drawn); test = absorbance; IC50 = > 100 µM
SMILES = COc1cc(O)c(CC=C(C)C)c2c1C(=O)[C@H](O)[C@@H](c1ccccc1)O2; test = absorbance; IC50 = 17.8 µM
SMILES = O=c1ccc2ccc(O[C@@H]3O[C@H](CO)[C@@H](O)[C@H](O)[C@H]3O)c(O[C@@H]3O[C@H](CO)[C@@H](O)[C@H](O)[C@H]3O)c2o1; test = absorbance; IC50 = > 100 µM
SMILES = N[C@@H](CCC(=O)N[C@@H](CS[Se]Cc1ccc(C(=O)Nc2cc(C(F)(F)F)c(Br)c(C(F)(F)F)c2)cc1)C(=O)NCC(=O)O)C(=O)O; setting = with: pNPP, GSH 1 mM; IC50 = 50 ± 20 µM
SMILES = CC(C)=CCC/C(C)=C/Cc1c(O)cc2c(c1O)C(=O)C[C@@H](c1ccc(O)c(CC=C(C)C)c1O)O2; test = absorbance; IC50 = 57.4 µM
SMILES = C=CC1C(OC2OC(COC(CC3C(C(=O)OC)=COC(OC4OC(CO)C(O)C(O)C4O)C3C=C)OC)C(O)C(O)C2O)OC=C(C(=O)OC)C1CC(OC)OC (stereo not drawn); test = absorbance; IC50 = > 100 µM

Excerpt of the above:
SMILES = C[C@@H]1O[C@@H](O[C@@H]2C(=O)c3c(O)cc(O)cc3O[C@@H]2c2ccc(O)cc2)[C@H](O)[C@H](O)[C@H]1O; test = absorbance; IC50 = 4.76 µM
